Published values gathered from unrelated publications.
A part holds a random share of what one study measured.
Sequence of UniProt Q04759 (whole entry, looked up): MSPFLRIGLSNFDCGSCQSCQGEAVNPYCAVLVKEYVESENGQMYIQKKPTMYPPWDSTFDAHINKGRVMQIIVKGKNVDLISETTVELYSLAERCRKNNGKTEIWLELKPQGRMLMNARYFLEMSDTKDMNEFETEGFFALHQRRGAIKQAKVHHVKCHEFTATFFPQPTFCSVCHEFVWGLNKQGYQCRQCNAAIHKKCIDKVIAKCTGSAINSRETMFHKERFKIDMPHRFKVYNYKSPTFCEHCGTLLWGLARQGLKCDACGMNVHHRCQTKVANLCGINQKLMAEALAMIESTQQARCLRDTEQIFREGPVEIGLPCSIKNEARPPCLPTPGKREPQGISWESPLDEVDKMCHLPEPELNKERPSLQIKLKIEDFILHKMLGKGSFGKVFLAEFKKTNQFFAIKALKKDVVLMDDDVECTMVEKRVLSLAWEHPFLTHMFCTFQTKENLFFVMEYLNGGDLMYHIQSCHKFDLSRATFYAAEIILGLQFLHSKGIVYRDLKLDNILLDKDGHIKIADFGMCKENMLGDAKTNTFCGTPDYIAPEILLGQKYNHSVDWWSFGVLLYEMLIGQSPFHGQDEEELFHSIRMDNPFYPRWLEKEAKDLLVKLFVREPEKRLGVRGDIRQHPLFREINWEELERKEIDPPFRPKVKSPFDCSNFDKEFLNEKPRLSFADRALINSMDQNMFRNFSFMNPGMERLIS
Sequence of UniProt Q9H2G2 (whole entry, looked up): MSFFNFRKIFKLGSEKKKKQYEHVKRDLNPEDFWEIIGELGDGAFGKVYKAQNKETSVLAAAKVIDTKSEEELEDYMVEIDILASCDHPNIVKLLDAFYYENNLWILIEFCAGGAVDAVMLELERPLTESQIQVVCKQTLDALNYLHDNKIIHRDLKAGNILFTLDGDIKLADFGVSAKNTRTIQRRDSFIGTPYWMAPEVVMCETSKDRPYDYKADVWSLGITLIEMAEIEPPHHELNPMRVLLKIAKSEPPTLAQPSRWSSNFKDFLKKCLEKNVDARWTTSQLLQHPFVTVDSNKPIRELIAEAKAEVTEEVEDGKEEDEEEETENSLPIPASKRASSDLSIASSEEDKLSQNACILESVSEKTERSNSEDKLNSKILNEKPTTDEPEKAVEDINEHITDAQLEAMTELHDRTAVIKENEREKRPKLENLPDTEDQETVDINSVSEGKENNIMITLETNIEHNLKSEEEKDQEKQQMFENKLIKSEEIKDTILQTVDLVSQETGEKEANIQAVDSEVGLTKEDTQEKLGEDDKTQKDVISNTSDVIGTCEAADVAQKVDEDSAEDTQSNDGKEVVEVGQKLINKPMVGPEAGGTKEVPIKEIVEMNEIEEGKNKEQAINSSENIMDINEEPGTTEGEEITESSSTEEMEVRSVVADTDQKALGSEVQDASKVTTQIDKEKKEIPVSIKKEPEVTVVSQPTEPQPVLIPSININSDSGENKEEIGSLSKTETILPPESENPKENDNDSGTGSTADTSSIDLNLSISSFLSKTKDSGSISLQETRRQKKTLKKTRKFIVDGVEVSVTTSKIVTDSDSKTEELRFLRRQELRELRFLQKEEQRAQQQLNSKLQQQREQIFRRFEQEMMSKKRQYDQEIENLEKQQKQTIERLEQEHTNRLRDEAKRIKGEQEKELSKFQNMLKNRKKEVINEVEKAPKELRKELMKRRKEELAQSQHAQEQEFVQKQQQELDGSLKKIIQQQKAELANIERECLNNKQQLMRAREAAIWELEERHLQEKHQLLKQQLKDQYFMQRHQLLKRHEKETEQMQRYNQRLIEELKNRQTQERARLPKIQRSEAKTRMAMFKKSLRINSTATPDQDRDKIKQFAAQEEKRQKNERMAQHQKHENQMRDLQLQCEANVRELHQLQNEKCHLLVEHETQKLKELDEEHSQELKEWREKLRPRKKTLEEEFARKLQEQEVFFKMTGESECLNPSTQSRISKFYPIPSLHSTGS
Sequence of UniProt P57078 (whole entry, looked up): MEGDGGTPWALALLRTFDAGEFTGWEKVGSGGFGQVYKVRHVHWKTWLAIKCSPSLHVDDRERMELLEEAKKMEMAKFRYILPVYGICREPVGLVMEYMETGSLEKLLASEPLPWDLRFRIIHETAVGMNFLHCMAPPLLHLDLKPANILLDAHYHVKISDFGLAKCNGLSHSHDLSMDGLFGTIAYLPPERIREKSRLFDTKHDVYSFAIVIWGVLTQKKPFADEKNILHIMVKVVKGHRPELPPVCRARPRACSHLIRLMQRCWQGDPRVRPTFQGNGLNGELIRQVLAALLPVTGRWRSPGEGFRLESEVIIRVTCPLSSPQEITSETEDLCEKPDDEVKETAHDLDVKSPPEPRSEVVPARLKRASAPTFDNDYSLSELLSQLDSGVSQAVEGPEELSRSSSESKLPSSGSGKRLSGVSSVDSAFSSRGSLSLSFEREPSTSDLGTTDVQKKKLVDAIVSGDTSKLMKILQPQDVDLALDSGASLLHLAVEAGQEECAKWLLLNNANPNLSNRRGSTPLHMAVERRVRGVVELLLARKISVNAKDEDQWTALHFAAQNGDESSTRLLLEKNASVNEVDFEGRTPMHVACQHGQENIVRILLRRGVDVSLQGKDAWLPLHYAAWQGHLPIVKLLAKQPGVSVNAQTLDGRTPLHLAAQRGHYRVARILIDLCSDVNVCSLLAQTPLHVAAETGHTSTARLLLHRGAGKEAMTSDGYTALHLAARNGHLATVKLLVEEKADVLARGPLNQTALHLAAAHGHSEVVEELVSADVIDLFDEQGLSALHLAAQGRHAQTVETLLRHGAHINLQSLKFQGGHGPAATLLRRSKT
Sequence of UniProt P52564 (whole entry, looked up): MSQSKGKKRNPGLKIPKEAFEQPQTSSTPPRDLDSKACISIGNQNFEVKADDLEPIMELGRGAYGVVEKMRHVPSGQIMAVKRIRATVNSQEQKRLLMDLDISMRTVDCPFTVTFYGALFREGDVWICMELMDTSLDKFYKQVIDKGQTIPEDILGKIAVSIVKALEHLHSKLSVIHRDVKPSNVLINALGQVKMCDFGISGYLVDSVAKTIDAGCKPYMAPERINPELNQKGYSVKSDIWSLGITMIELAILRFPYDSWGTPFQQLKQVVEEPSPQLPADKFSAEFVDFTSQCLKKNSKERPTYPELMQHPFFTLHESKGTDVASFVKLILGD
Sequence of UniProt Q96KB5 (whole entry, looked up): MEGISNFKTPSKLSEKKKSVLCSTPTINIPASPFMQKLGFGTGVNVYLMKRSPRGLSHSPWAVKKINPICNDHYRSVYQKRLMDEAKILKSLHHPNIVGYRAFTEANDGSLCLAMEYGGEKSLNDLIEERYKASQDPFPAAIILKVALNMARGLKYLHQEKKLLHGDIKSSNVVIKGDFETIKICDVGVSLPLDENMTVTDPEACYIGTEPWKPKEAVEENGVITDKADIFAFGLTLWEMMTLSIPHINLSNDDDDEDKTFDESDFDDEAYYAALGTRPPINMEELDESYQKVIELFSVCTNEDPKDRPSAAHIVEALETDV
Sequence of UniProt P10721 (whole entry, unmodified, looked up): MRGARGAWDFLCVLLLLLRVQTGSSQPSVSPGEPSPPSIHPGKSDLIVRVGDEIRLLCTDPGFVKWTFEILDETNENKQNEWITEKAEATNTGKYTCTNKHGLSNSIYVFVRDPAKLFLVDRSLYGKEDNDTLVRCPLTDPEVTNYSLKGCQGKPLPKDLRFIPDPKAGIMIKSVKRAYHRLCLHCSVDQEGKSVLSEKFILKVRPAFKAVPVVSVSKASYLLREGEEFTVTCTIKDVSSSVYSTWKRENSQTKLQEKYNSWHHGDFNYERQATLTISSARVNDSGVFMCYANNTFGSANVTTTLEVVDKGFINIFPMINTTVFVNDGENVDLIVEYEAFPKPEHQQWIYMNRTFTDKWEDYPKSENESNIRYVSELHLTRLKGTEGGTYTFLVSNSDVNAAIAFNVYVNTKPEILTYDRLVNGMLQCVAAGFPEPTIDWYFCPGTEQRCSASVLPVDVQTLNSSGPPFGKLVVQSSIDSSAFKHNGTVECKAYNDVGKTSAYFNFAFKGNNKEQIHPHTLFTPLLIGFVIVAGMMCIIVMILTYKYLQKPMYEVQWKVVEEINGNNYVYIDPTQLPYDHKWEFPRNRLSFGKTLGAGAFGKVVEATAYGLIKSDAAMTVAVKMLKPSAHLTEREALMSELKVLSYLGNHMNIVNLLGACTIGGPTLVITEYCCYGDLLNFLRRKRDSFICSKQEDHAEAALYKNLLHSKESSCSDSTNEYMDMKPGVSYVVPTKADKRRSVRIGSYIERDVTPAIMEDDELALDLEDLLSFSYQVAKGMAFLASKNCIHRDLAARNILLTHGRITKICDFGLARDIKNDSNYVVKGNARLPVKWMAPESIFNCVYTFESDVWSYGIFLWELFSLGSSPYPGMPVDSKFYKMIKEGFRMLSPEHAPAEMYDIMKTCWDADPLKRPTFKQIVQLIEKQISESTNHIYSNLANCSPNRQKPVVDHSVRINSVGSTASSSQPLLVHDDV

Set 1
Target: Protein kinase C beta type, isoform beta-II (PRKCB, Homo sapiens, UniProt P05771)
Sequence of UniProt P05771 (whole entry, looked up): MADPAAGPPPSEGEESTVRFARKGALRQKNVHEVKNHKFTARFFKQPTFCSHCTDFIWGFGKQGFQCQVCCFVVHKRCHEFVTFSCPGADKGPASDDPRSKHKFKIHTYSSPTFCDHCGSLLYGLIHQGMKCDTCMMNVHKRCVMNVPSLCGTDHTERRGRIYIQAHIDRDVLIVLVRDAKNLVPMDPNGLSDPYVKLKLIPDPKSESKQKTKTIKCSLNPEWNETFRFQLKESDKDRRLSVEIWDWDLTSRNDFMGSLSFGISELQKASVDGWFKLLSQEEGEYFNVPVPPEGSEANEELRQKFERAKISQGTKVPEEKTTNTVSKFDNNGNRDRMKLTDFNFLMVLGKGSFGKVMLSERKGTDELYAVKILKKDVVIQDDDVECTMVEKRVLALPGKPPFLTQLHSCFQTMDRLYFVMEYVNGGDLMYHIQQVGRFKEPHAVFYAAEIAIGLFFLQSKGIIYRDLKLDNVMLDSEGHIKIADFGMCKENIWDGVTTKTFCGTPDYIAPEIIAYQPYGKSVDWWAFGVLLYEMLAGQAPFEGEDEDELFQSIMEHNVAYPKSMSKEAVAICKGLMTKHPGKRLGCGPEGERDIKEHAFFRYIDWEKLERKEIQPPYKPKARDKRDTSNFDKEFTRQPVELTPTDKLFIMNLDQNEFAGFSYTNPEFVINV
Read-out: enzyme activity
Action: inhibitor
Tested at: 0.5 µM
Reference: control
Measurement: remaining activity
O=C1Cc2c([nH]c3ccc(Br)cc23)-c2ccccc2N1: 102%
O=c1cc(N2CCOCC2)oc2c(-c3ccccc3)cccc12: 104%
Oc1cccc(-c2nc(N3CCOCC3)c3oc4ncccc4c3n2)c1: 102%
O=C(c1cc2cc(O)ccc2[nH]1)c1cc2cc(O)ccc2[nH]1: 98.9%
c1ccc2c(-c3ccncc3)c[nH]c2c1: 89.5%
O=C1Nc2ccccc2/C1=C\c1c(Cl)[nH]c2ccccc12: 92.6%
CN(C)S(=O)(=O)c1ccc2c(c1)/C(=C/c1cc3c([nH]1)CCCC3)C(=O)N2: 92%
Cc1cc(Nc2cc(N3CCN(C)CC3)nc(Sc3ccc(NC(=O)C4CC4)cc3)n2)[nH]n1: 89.7%
COc1ccc(COc2ccc(Cc3cnc(N)nc3N)cc2OC)cc1: 110%
COc1ccc2c(c1)c(C1=C(c3c[nH]c4ccccc34)C(=O)NC1=O)cn2CCCN(C)C: 14.2%
CCCCc1c(-c2ccc(OC)cc2)[nH]c2nccnc12: 106%
CCCNC(=O)Nc1ccc(Oc2ncnc3cc(OC)c(OC)cc23)cc1Cl: 93.6%
O=C1Nc2ccc(Br)cc2/C1=C/c1cc2c([nH]1)CCCC2: 85.5%
c1ccc(-c2n[nH]c3c2oc2ccccc23)cc1: 113%
O=C1NC(=O)c2c1c1c3ccccc3[nH]c1c1[nH]c3cc(Br)ccc3c21: 72.8%
CN1CCN(c2ccc3nc(-c4c(N)c5c(F)cccc5[nH]c4=O)[nH]c3c2)CC1: 92%
N#Cc1cnc2cnc(NCc3cccnc3)cc2c1Nc1ccc(F)c(Cl)c1: 86.2%
COc1cccc(-c2cc(=O)c3ccccc3o2)c1N: 102%
O=Nc1c(-c2c(O)[nH]c3cc(Br)ccc23)[nH]c2ccccc12: 108%

Set 2
Organism: Sarcocystis neurona
Read-out: parasite growth
Tested at: 10 µM
Time: 96 h
Setting: first screen
Reference: untreated
Measurement: log2 fold change
c1ccc2c(CC3=NCCN3)cccc2c1: 0.14
O=C1CCC(N2C(=O)c3ccccc3C2=O)C(=O)N1 (stereo not drawn): 0.22
NCc1ccc(S(N)(=O)=O)cc1: 0.33
Cn1cc[nH]c1=S: 0.0248
CC(C)c1ccc2oc3nc(N)c(C(=O)O)cc3c(=O)c2c1: 2.02
CCCC(=O)Nc1ccc(OCC(O)CNC(C)C)c(C(C)=O)c1 (stereo not drawn): -0.19
CN(C)c1nc(N(C)C)nc(N(C)C)n1: 0.29
CC(C)(C)NC[C@H](O)COc1nsnc1N1CCOCC1: 0.28
CCOC(=O)[C@H](CCc1ccccc1)N[C@@H](C)C(=O)N1CCC[C@H]1C(=O)O: 0.1
C[C@@](Cc1ccc(O)c(O)c1)(NN)C(=O)O: 0.09

Set 3
Structure (SMILES): NS(=O)(=O)c1cc(NC(=O)Cc2ccccc2)ccc1Oc1cccc(Cl)c1
Read-out: cell-free assay
Technique: competition with immobilised ligand
Tested at: 1 µM
Measurement: remaining binding
RIPK4 (Homo sapiens, UniProt P57078): 83%
EPHB2 (Homo sapiens, UniProt P29323): 100%
STK39 (Homo sapiens, UniProt Q9UEW8): 86%
IKBKE (Homo sapiens, UniProt Q14164): 69%
NEK4 (Homo sapiens, UniProt P51957): 98%
EGFR (Homo sapiens, UniProt P00533, del747-752/P753S): 67%
ERBB4 (Homo sapiens, UniProt Q15303): 56%
Cyclin-dependent kinase 4, with cyclin D3 (CDK4, Homo sapiens, UniProt P11802): 71%
CAMKK2 (Homo sapiens, UniProt Q96RR4): 91%
PRKX (Homo sapiens, UniProt P51817): 91%
NEK7 (Homo sapiens, UniProt Q8TDX7): 86%
ABL2 (Homo sapiens, UniProt P42684): 87%
FLT1 (Homo sapiens, UniProt P17948): 80%
CSNK1E (Homo sapiens, UniProt P49674): 100%
KIT (Homo sapiens, UniProt P10721, D816H): 76%
KDR (Homo sapiens, UniProt P35968): 77%
MAP2K6 (Homo sapiens, UniProt P52564): 99%

Set 4
Compound: Cc1sc(C(=O)NC2COC2)cc1-n1cc(NC(=O)Nc2c(F)cccc2Cl)cn1
Read-out: enzyme activity
Tested at: 10 µM
Measurement: remaining activity
ITK (Homo sapiens, UniProt Q08881); reference: untreated control: 91.4%
JAK1 (Homo sapiens, UniProt P23458); reference: untreated control: 71.5%
CSNK1A1L (Homo sapiens, UniProt Q8N752); inhibitor: 105%
PBK (Homo sapiens, UniProt Q96KB5); reference: untreated control: 86.4%
CAMK2G (Homo sapiens, UniProt Q13555); reference: untreated control: 99.2%
MAP3K7 (Homo sapiens, UniProt O43318); reference: untreated control: 97.7%
PRKCQ (Homo sapiens, UniProt Q04759); reference: untreated control: 96%
CHEK1 (Homo sapiens, UniProt O14757); reference: untreated control: 113%
SLK (Homo sapiens, UniProt Q9H2G2); reference: untreated control: 99.1%
DYRK4 (Homo sapiens, UniProt Q9NR20); inhibitor: 93.7%
SNRK (Homo sapiens, UniProt Q9NRH2); reference: untreated control: 101%

Excerpt of the above (set 3):
Cyclin-dependent kinase 4, with cyclin D3 (CDK4, Homo sapiens, UniProt P11802): 71%
KIT (Homo sapiens, UniProt P10721, D816H): 76%
EGFR (Homo sapiens, UniProt P00533, del747-752/P753S): 67%
EPHB2 (Homo sapiens, UniProt P29323): 100%
ERBB4 (Homo sapiens, UniProt Q15303): 56%
MAP2K6 (Homo sapiens, UniProt P52564): 99%
FLT1 (Homo sapiens, UniProt P17948): 80%
NEK4 (Homo sapiens, UniProt P51957): 98%
